{"data": "Assay results collected from several papers", "note": "Each numbered part is a random draw from the data of one study; scales do not carry over between parts. Changes are numbered by the printed parent chain."}
{"data": "Series 1", "target": "CEP164, C-terminal peptide (human)", "method": "DHFR complementation, deep sequencing", "sample": "yeast", "notes": "single substitutions, model-inferred values", "relative to": "wild type", "direction": "higher = weaker binding", "parent": "PDZK1, PDZ domain 2 (human); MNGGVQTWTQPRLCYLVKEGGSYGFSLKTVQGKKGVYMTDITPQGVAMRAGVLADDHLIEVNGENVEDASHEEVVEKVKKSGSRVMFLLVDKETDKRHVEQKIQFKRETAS; partner HNRVKVYRF"}
{"Change": "G35F", "binding free energy change [kcal/mol]": 0.792}
{"Change": "G21I", "binding free energy change [kcal/mol]": -0.0381}
{"Change": "Q104N", "binding free energy change [kcal/mol]": -0.187}
{"Change": "S70E", "binding free energy change [kcal/mol]": -0.328}
{"Change": "L89Q", "binding free energy change [kcal/mol]": 1.1}
{"Change": "K33Y", "binding free energy change [kcal/mol]": 0.32}
{"Change": "A47Q", "binding free energy change [kcal/mol]": 1.43}
{"Change": "L58I", "binding free energy change [kcal/mol]": 0.0921}
{"data": "Series 2", "target": "POU, POU domain (Salpingoeca helianthica)", "method": "Spec-seq", "form": "double-stranded DNA, one strand shown", "sample": "in vitro", "tested at": "not given", "notes": "whole probe, mean of replicates", "relative to": "not given", "direction": "lower = stronger binding", "constant ends, left off below": "GAGTCGTCTCGTCAGCAC … CCGTAGAGCACTCAGGTC", "Construct (chain)": "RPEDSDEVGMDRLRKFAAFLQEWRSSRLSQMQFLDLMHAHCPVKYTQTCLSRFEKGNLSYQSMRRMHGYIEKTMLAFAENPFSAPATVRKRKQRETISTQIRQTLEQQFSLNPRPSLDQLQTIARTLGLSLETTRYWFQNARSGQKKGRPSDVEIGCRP"}
{"Sequence": "TCAGTAAT", "relative binding energy": "0.53 ln ratio"}
{"Sequence": "ATGCGTCA", "relative binding energy": "1.32 ln ratio"}
{"Sequence": "ATTCTTAT", "relative binding energy": "0.859 ln ratio"}
{"Sequence": "CTTATAAT", "relative binding energy": "0.299 ln ratio"}
{"Sequence": "ATTCGGAT", "relative binding energy": "1.36 ln ratio"}
{"Sequence": "AACTTAAT", "relative binding energy": "0.324 ln ratio"}
{"Sequence": "ATGGCTAT", "relative binding energy": "1.31 ln ratio"}
{"Sequence": "ATGCGGTT", "relative binding energy": "1.39 ln ratio"}
{"data": "Further values, each from its own experiment"}
{"Molecule": "PhoQ, residues 284 288 289 292 302 303 SLCLSL", "target or system": "PhoP, residues 12 14 15 18 19 GHCSL (Escherichia coli, UniProt P23836)", "assay": "Sort-seq, refers to: YFP reporter", "test system": "E. coli", "setting": "PhoQ-PhoP variant library, together with: 10 µM Mg2+", "how to read": "relative to: high Mg2+ state, higher = stronger signaling", "endpoint": "fold induction", "result": 2.34}
{"Molecule": "O=S(=O)(NCCn1c(-c2ccncc2)nc2ccccc21)c1ccc(Br)s1", "test system": "mouse, microsomes or S9", "setting": "2 µM, 0.5 h", "endpoint": "remaining compound", "result": "1.7%"}
{"note": "Excerpt of the above (series 1):"}
{"Change": "K33Y", "binding free energy change [kcal/mol]": 0.32}
{"Change": "A47Q", "binding free energy change [kcal/mol]": 1.43}
